# Measurements pooled from the literature.
# Parts stem from different laboratories: compare values within a part only. Several values in a cell are separate wells, animals, samples, runs or records.
# UniProt Q9UBE8, sequence (whole entry, looked up): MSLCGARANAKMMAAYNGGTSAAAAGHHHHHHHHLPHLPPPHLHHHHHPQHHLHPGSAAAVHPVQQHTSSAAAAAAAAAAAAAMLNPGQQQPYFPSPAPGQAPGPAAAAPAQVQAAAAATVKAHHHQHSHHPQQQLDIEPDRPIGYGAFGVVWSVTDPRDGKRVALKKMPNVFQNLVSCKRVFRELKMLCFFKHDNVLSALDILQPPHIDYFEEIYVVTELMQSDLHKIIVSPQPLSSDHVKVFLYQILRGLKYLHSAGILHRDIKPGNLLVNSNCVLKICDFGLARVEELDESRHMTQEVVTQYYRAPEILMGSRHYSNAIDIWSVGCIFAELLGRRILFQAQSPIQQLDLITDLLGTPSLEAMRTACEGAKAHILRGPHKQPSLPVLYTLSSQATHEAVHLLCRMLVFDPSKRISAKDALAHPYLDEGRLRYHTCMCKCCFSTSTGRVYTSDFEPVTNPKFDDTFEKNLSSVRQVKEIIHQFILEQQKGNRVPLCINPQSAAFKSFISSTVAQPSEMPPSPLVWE
# UniProt Q13546, sequence (whole entry, looked up): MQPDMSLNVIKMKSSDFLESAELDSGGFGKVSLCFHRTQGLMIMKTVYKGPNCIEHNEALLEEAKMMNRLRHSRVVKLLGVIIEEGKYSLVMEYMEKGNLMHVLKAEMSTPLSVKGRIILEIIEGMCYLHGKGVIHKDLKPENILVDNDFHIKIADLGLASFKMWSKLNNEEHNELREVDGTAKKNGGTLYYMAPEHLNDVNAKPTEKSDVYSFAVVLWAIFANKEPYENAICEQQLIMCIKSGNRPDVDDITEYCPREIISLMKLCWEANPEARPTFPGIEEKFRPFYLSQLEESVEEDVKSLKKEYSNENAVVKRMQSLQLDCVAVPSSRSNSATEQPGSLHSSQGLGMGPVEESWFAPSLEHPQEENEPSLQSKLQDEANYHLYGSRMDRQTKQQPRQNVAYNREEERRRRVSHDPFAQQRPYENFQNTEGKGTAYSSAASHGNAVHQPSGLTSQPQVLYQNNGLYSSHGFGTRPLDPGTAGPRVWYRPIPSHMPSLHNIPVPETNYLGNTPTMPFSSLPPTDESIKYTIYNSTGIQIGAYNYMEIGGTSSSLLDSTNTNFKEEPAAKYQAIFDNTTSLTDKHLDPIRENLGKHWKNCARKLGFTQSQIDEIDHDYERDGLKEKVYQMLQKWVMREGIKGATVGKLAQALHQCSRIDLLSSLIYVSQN
# UniProt Q9HAZ1, sequence (whole entry, looked up): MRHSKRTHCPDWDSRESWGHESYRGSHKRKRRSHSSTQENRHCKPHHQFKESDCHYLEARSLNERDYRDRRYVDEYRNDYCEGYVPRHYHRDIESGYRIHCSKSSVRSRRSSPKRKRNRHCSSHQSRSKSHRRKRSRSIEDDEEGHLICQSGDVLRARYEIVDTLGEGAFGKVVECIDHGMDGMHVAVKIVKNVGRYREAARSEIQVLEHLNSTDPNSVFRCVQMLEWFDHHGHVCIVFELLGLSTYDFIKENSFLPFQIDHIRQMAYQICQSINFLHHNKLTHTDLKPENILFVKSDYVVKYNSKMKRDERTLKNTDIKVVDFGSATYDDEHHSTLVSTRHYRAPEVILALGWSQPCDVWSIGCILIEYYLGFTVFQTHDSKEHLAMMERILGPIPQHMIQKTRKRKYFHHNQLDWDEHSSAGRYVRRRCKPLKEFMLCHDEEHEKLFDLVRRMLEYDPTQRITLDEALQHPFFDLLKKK

# Study 1
# Structure (SMILES): COc1ccc2cc(OCC3(C(=O)O)CN(C(=O)c4ccc(F)cc4)C3)ccc2c1
# Effect on: cell-free assay
# Technique: competition with immobilised ligand
# Concentration: 1 µM
target,remaining binding [%]
"RIPK1 (Homo sapiens, UniProt Q13546)",100
"CLK4 (Homo sapiens, UniProt Q9HAZ1)",100
"NLK (Homo sapiens, UniProt Q9UBE8)",94

# Study 2
# Organism: Sarcocystis neurona
# Effect on: parasite growth
# Concentration: 10 µM
# Time: 96 h
# Reference: untreated
Structure (SMILES),log2 fold change
CC1(C)O[C@@H]2C[C@H]3[C@@H]4CCC5=CC(=O)C=C[C@]5(C)[C@@]4(F)[C@@H](O)C[C@]3(C)[C@]2(C(=O)CO)O1,0.33
CCC1=C(C)CN(C(=O)NCCc2ccc(S(=O)(=O)NC(=O)N[C@H]3CC[C@H](C)CC3)cc2)C1=O,0.46
O=C1CC[C@@H](C(=O)N2CSC[C@H]2C(=O)O)N1,0.26

# Mixed results
SMILES,target or system,system,conditions,scale,quantity,result
c1ccc2c(-c3nn4c(-c5ccncc5)nnc4s3)c[nH]c2c1,"α-galactosidase (human, wild type)",healthy dermal fibroblasts,"0.5 µM, without ISRIB",reference: DMSO,remaining activity,161% and 143% and 138% and 125% and 117% and 109% and 115%
CCC[C@H]1NC(=O)CSC[C@@H](C(=O)OCC)N(C)C(=O)[C@H](CC(C)C)NC(=O)[C@H](C)N(C)C(=O)[C@@H](CC(C)C)NC(=O)[C@H](C)N(C)C(=O)[C@@H]2CCCN2C(=O)[C@@H](CC(C)C)NC(=O)CN(CCC)C1=O,,hydrocarbon/water,,,logD,1.22
